Published values collected from several papers.
Each line is one published result; not all experiments were run side by side. ± gives the spread as reported.
UniProt P50552, sequence (whole entry, looked up): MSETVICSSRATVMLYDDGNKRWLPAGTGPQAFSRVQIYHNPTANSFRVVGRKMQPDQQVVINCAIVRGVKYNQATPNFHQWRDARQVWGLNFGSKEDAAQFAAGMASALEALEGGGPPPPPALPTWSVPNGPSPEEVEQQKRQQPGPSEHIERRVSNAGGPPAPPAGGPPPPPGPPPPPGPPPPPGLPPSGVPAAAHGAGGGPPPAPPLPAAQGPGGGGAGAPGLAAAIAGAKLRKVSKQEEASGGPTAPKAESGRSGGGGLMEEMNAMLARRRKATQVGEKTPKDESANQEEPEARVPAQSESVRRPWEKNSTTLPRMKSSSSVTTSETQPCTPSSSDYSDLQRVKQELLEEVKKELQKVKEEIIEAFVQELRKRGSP
UniProt P61981, sequence (whole entry, looked up): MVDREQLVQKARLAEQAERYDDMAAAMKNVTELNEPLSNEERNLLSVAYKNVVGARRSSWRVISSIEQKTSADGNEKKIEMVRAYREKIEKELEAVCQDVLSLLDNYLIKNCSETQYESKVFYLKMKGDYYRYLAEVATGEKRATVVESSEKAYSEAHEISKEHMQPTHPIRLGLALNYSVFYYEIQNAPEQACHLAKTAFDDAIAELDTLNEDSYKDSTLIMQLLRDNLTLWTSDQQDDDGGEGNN
UniProt P10997, sequence (whole entry, looked up): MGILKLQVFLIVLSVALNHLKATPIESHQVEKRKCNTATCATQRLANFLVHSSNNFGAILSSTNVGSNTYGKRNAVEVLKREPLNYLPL
UniProt P06756, sequence (whole entry, looked up): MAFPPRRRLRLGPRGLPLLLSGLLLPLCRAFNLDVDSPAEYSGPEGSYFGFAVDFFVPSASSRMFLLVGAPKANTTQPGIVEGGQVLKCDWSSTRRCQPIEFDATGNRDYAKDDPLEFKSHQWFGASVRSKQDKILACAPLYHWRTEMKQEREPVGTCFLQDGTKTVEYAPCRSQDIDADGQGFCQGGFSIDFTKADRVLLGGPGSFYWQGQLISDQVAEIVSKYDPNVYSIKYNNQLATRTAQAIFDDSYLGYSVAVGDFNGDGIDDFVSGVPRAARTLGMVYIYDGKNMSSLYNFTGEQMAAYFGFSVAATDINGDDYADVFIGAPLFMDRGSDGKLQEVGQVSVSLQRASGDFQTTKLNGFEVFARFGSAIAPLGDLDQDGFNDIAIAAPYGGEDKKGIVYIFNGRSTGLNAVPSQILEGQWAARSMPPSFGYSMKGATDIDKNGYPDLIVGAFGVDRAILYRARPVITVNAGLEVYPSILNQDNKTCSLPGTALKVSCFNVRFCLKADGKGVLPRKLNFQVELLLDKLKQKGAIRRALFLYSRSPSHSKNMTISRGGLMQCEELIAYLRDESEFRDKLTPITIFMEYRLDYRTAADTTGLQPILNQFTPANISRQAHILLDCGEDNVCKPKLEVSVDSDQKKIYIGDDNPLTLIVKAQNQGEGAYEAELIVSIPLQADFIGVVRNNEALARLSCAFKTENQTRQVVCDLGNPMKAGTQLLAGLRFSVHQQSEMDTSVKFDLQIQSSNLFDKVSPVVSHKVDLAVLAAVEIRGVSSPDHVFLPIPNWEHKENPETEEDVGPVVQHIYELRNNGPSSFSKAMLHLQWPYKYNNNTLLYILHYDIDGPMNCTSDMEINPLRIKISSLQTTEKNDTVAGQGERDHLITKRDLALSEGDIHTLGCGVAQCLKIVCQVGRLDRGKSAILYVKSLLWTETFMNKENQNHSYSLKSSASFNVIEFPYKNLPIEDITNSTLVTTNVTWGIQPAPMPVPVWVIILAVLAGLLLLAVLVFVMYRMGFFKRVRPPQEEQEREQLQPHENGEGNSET
UniProt Q8N3J6, sequence (whole entry, looked up): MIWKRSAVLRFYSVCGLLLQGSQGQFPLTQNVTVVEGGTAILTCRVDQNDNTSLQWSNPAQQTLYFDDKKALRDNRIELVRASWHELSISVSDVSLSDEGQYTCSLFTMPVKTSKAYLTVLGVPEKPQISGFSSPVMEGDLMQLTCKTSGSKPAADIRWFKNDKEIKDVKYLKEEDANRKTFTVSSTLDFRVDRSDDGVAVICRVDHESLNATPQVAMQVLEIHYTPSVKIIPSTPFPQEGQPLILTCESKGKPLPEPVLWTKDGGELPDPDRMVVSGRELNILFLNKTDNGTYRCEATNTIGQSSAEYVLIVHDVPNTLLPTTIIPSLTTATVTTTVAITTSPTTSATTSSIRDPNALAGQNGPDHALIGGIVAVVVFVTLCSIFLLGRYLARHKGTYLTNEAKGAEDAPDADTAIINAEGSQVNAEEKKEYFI
UniProt P18564, sequence (whole entry, looked up): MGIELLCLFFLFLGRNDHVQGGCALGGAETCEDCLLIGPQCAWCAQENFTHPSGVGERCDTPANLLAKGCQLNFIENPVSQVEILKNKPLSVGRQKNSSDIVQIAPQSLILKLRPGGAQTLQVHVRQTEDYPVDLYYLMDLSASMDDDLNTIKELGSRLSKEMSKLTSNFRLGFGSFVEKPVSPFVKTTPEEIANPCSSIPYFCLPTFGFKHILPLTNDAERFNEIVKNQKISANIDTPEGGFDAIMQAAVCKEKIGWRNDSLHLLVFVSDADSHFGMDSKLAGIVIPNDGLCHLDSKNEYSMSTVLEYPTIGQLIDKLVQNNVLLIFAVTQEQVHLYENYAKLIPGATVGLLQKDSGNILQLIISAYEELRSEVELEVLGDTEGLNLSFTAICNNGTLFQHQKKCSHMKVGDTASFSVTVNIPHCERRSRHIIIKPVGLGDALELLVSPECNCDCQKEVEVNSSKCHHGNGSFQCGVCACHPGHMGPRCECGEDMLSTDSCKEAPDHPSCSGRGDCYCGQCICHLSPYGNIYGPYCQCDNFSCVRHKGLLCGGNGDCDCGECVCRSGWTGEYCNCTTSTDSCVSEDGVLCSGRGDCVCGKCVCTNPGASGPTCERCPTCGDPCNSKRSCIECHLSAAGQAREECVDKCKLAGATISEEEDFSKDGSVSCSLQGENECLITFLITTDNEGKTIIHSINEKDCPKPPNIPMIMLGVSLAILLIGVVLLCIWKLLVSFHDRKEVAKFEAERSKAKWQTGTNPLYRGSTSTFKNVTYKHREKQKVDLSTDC
UniProt P00811, sequence (whole entry, looked up): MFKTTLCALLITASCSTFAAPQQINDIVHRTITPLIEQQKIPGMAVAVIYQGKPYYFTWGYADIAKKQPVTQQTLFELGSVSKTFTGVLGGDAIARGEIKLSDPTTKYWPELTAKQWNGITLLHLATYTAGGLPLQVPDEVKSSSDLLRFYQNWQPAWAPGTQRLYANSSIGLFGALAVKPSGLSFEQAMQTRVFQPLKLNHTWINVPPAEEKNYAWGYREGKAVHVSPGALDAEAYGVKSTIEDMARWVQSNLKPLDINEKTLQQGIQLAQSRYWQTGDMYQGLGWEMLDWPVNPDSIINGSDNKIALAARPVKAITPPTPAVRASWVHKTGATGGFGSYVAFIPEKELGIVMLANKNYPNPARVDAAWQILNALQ
UniProt Q9T020, sequence (whole entry, looked up): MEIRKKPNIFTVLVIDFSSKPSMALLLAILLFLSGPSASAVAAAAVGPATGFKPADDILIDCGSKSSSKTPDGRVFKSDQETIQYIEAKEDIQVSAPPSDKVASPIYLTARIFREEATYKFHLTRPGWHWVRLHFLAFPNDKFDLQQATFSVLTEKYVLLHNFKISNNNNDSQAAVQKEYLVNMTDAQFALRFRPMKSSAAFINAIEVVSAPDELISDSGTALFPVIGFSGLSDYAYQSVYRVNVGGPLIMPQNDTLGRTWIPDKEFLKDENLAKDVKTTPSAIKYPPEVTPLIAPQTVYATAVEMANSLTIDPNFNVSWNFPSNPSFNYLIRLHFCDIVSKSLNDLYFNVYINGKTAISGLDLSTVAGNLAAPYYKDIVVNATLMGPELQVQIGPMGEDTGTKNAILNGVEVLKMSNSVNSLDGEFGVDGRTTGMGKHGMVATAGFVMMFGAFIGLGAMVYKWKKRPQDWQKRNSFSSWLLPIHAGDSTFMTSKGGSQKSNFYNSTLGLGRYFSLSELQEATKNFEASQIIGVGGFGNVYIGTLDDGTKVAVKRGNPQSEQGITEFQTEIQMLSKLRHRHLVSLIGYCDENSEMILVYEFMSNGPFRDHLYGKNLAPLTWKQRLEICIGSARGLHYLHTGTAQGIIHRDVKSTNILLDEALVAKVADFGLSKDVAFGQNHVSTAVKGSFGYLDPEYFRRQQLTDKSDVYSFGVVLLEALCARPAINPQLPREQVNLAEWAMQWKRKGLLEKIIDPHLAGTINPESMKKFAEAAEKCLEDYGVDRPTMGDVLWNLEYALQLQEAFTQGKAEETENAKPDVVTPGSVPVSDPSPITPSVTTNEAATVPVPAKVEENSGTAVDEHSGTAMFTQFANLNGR

CSCCC(N)c1nc2ccccc2[nH]1 (stereo not drawn) — Kd (Beta-lactamase (ampC, Escherichia coli K-12, UniProt P00811)): 1100 µM
CC[C@H](C)[C@@H]1NC(=O)[C@@H]2CCCN2C(=O)[C@H](Cc2c[nH]c3ccccc23)NC(=O)[C@H](CO)NC(=O)[C@H](Cc2c[nH]c3ccccc23)NC(=O)[C@H](CC(N)=O)NC(=O)[C@H](CCCCN)NC(=O)[C@H](CCSC)NC(=O)[C@@H]2CSCCC(=O)N3CN(CN(C3)C(=O)CCSC[C@H](NC(=O)[C@H](C)N)C(=O)N3CCC[C@H]3C(=O)N[C@@H](Cc3ccccc3)C(=O)NCC(=O)N2)C(=O)CCSC[C@@H](C(=O)N[C@H](C(=O)N[C@@H](CC(N)=O)C(=O)N[C@@H](CCCCN)C(=O)N(C)CC(=O)N(C)CC(=O)N(C)CC(=O)N(C)CC(=O)N(C)CC(=O)N(C)CC(=O)N[C@@H](CCCCNC(=O)c2ccc(C(=O)O)c(-c3c4ccc(=O)cc-4oc4cc(O)ccc34)c2)C(N)=O)[C@@H](C)O)NC(=O)[C@H](Cc2c[nH]c3ccccc23)NC1=O — Kd (Cell adhesion molecule 2 (CADM2, Homo sapiens, UniProt Q8N3J6); fluorescence polarization): > 2 µM
CC1(C)C(NC(=O)C(=NOC2(C(=O)O)CC2)c2csc(N)n2)C(=O)N1OS(=O)(=O)O (stereo not drawn) — Kd (Beta-lactamase SHV-11 (Escherichia coli, UniProt Q7X575); binding, SPR): 45 µM
CC(=O)c1cnc2ccc(-c3cc(Cl)c(O)c(Cl)c3)nc2c1N[C@H]1CC[C@H](CN(C)C)CC1 — Kd (Probable receptor-like protein kinase At4g39110 (Arabidopsis thaliana, UniProt Q9T020); binding, SPR): > 100 µM
CC[C@H](C)[C@H](NC(=O)[C@H](CO)NC(=S)Nc1ccc2c(c1)C(=O)OC21c2ccc(O)cc2Oc2cc(O)ccc21)C(=O)N[C@@H](CCC(=O)O)C(=O)N[C@@H](CCCCN)C(=O)NCC(=O)NCC(=O)N[C@@H](CCP(=O)(O)O)C(=O)N[C@@H](CC(C)C)C(=O)N1CCC[C@H]1C(=O)N[C@@H](CCCCN)C(=O)N[C@H](C(=O)N[C@@H](Cc1c[nH]c2ccccc12)C(=O)N[C@@H](CC(C)C)C(=O)N[C@H](C(=O)N1CCC[C@H]1C(=O)N[C@@H](CCCNC(=N)N)C(=O)O)C(C)C)C(C)C — Kd (YWHAG (Homo sapiens, UniProt P61981); binding, fluorescence anisotropy; pH 7.5, FITC-labelled phosphopeptide titration): 33.1 µM
CC(=O)N[C@@H](CO)C(=O)N[C@@H](Cc1ccccc1)C(=O)N[C@@H](CCC(=O)O)C(=O)N[C@@H](Cc1ccccc1)C(=O)N1CCC[C@H]1C(=O)N1CCC[C@H]1C(=O)N1CC[C@@H]2C=C[C@H]3CC[C@@H](C(=O)N[C@H](C(=O)N[C@@H](CCC(=O)O)C(=O)N[C@@H](CC(=O)O)C(=O)N[C@@H](CCC(=O)O)C(=O)N[C@@H](CC(C)C)C(N)=O)[C@@H](C)O)N3C(=O)[C@H]21 — Kd (VASP (Homo sapiens, UniProt P50552); binding, fluorescence): 5.7 µM
CC[C@H](C)[C@H](NC(=O)[C@H](CCCCN)NC(=O)[C@H](C)NC(=O)[C@H](CCCNC(=N)N)NC(=O)[C@H](CCCCN)NC(=O)[C@H](CCC(N)=O)NC(=O)[C@H](CCC(N)=O)NC(=O)[C@H](CC(N)=O)NC(=O)[C@@H](NC(=O)[C@H](CC(C)C)NC(=O)[C@H](CS)NC(=O)[C@@H]1CCCN1C(=O)[C@H](CC(=O)O)NC(=O)[C@H](CC(C)C)NC(=O)[C@H](C)NC(=O)[C@H](C)NC(=O)[C@H](CCC(=O)O)NC(=O)[C@H](Cc1c[nH]c2ccccc12)NC(=O)[C@H](Cc1ccc(O)cc1)NC(=O)[C@H](CCCNC(=N)N)NC(=O)[C@H](CC(N)=O)NC(=O)[C@H](CCCNC(=N)N)NC(=O)[C@H](CCSC)NC(=O)[C@H](CCC(=O)O)NC(=O)[C@H](CCCCN)NC(=O)[C@H](CO)NC(=O)[C@H](Cc1ccccc1)NC(C)=O)[C@@H](C)O)C(=O)N[C@@H](CCCNC(=N)N)C(=O)N[C@@H](CO)C(=O)N[C@H](C(=O)N[C@@H](Cc1ccc(O)cc1)C(=O)N[C@@H](CCC(=O)O)C(=O)N[C@@H](CCC(=O)O)C(=O)NCC(=O)N[C@@H](CCC(=O)O)C(N)=O)[C@@H](C)CC — Kd (ERBB2 (Homo sapiens, UniProt P04626); binding, SPR): 0.009 µM
C[C@@H](O)[C@H](NC(=O)C(NC(=O)[C@@H](N)CS)C1CC1)C(=O)N[C@@H](CCCNC(=N)N)C(=O)NCC(=O)N[C@@H](CC(=O)O)C(=O)N[C@@H](Cc1ccc(O)cc1F)C(=O)N1CC(F)(F)CC1C(N)=O (stereo partly drawn) — Kd (Integrin alpha-V/beta-6 (Homo sapiens, UniProt P06756+P18564); binding, BLI): 63.8 µM
CC[C@H](C)[C@H](NC(=O)[C@H](C)NC(=O)CNC(=O)[C@H](Cc1ccccc1)NC(=O)[C@H](CC(N)=O)NC(=O)[C@H](CC(N)=O)NC(=O)[C@H](CO[C@@H]1O[C@H](CO)[C@@H](O)[C@H](O)[C@H]1NC(C)=O)NC(=O)[C@H](CO)NC(=O)[C@H](Cc1c[nH]cn1)NC(=O)[C@@H](NC(=O)[C@H](CC(C)C)NC(=O)[C@H](Cc1ccccc1)NC(=O)[C@H](CC(N)=O)NC(=O)[C@H](C)NC(=O)[C@@H](N)CC(C)C)C(C)C)C(=O)N[C@@H](CC(C)C)C(N)=O — Kd (IAPP (Homo sapiens, UniProt P10997); binding, SPR): 169 ± 7.4 µM

A few entries again:
CC1(C)C(NC(=O)C(=NOC2(C(=O)O)CC2)c2csc(N)n2)C(=O)N1OS(=O)(=O)O (stereo not drawn) — Kd (Beta-lactamase SHV-11 (Escherichia coli, UniProt Q7X575); binding, SPR): 45 µM
